Measured values collected from several papers.
Every numbered part comes from another study and shows a few of its results, in no order.

Study 1
Target: Sal-like protein 4, full length isoform B (SALL4, Homo sapiens, UniProt Q9UJQ4-2, residues 1-616)
Method: universal PBM
Molecule type: double-stranded DNA, one strand shown
Matrix: in vitro
Tested at: not given
Notes: 8-mer, flanks averaged, mean of replicates
Reading: higher = stronger binding
Measurement: E-score
Construct (chain): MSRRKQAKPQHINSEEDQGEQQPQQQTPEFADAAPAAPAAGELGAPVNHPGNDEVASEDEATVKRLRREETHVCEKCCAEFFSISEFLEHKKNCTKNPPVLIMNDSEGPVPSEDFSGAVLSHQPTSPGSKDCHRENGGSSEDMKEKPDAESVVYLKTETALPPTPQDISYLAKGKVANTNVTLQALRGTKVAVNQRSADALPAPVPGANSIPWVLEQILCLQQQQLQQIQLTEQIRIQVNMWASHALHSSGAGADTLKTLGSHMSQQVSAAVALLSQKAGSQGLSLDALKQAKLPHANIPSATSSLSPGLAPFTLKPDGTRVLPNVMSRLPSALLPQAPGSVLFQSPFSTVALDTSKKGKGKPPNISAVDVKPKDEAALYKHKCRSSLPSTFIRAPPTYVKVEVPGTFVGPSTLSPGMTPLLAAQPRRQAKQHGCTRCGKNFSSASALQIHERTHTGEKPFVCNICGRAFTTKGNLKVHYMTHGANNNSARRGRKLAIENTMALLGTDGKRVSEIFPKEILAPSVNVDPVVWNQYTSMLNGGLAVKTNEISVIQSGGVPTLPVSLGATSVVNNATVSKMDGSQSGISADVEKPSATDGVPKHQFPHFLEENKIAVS
TTACCGAA: 0.0916
AGTCCCGG: -0.383
ATTGCGTG: -0.0565
CAGGACGG: -0.243
AAAAAGCT: 0.222
GCCCGCGC: -0.363
CTAAACCC: 0.0251
GAGCCATA: 0.0665
ATCAATAC: 0.269
CAGGTCAA: -0.121
GCGGGACC: -0.252

Study 2
Target: Histone acetyltransferase KAT6A, winged helix 1, GST fusion (KAT6A, Homo sapiens, UniProt Q92794, residues 1-85)
Method: protein binding microarray
Molecule type: double-stranded DNA, one strand shown
Matrix: in vitro
Tested at: not given
Notes: 8-mer, flanks averaged, mean of 2 arrays, mostly near background
Reference: not given
Reading: higher = stronger binding
Measurement: E-score
Residues (chain): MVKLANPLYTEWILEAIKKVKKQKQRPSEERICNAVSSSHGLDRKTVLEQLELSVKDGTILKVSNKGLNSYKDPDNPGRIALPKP
GGCCCTAA: -0.0192
CTGTTCGA: -0.301
ACCCATTC: -0.244
ACGCTGAA: 0.168
TAGTAACA: -0.0248
CCATCATA: -0.237
AGGTCAAG: -0.23
ATAACATA: 0.016

Study 3
Target: RNA binding protein fox-1 homolog 2, RRM domain, GST-SBP tag (RBFOX2, Homo sapiens, UniProt O43251-10, residues 100-194)
Method: RNA Bind-n-Seq
Molecule type: RNA
Matrix: in vitro
Tested at: 365 nM
Notes: natural RNA segment, single round, ends assumed
Reference: no-protein control
Reading: higher = stronger binding
Measurement: RBNS enrichment (R)
Constant ends, left off below: GGGAGUUCUACAGUCCGACGAUC … UGGAAUUCUCGGGUGCCAA
Construct (chain): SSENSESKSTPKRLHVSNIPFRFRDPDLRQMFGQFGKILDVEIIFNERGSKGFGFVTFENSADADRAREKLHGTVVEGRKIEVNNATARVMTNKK
CAAGGACUUGGUUUCAUCAGUUACCAGGAAGUGGGGGAACCAUGGAGGGAGAACGCUAUAUUGGGUUCACAGUUACAUGGUGAUCAAAGAGAACUUCUCAGUCUCCAGGA: 0.223
UCCUGUGGAGGCUGAGAUGAAAACUAGGGCUCAUUUUCCUGACAUUUGUUUAUUUUUUGGAAGAGACAAAGAUUUCUUCUGCACUCUGAGCCCAUAGGUCUCAGAGAGUU: 0.448
UGCUAAUAAUGUCUUGUUUGGGUCUCCCAAACCCUACCUCUCAACUCCCUUAAGAGUAUCACUGUUCUGAAGCUAAAAUGCUUCAGUCUCAAAUUUAGGGGCAAAGUGGA: 0.457
GGUUUCUUGCAUCUGAUCUUUCUACCACAACCACACCUGUCGUCCACUCUUCUGACUUGGUUUCUCCAAAUGGGAGGAGACCCAGCUCUGGACAGAAAGGGGACCCGACU: 0.62
AGGCUUUCCUGGAGCAGGCCAGUGAGUGUAGACGUGUGUAAAGAUGUCGCCAGUUCUCACUGUCUGUCAGCUCACUGAGCUGCCCUUCAUCCAUGGUCCUUGAGCUCCAG: 0.248
GCAGUCCGUGCUCCUCCAGCUGCCCCAGUGAGGGCCCACCCUGCCUGCACCUCCGCGGGCUGACUGGGCCACAGCCCCGAUGAUUCUUAACACAGCCUUCCUUCUGCUCC: 0.312

Single results of other studies
PhoQ, residues 284 288 289 292 302 303 SLGVVW — fold induction (PhoP, residues 12 14 15 18 19 IQFRS (Escherichia coli, UniProt P23836); Sort-seq, measured: YFP reporter; E. coli; PhoQ-PhoP variant library, added: 10 µM Mg2+; reference: high Mg2+ state, higher = stronger signaling): 65.6

Excerpt of the above (study 2):
CCATCATA: -0.237
AGGTCAAG: -0.23
